# Assay results gathered from unrelated publications.
# Each line is one published result; not all experiments were run side by side.
# Organism: Pseudomonas aeruginosa
SMILES,technique,strain,sample,time,temperature,MIC
CC(C)(C)c1cccc(C(C)(C)C)c1Oc1ccc([N+](=O)[O-])cc1[N+](=O)[O-],,ATCC 29853,,,,125 µg/mL
N=C(N)NCCC[C@H](NC(=O)[C@H](Cc1c[nH]cn1)NC(=O)[C@@H]1CCCN1C(=O)[C@H](CS)NC(=O)[C@@H]1CCCN1)C(=O)N[C@@H](CS)C(=O)O,broth microdilution,MTCC 1688,,,37 °C,70 µg/mL
CC[C@H](C)[C@H](NC(=O)[C@H](CCCCN)NC(=O)[C@H](CC(C)C)NC(=O)[C@H](CC(C)C)NC(=O)[C@H](C)NC(=O)CNC(=O)[C@H](CC(C)C)NC(=O)[C@@H](N)Cc1ccccc1)C(=O)NCC(=O)N[C@@H](C)C(=O)N[C@@H](CCCCN)C(=O)N[C@@H](CC(C)C)C(=O)N[C@@H](CC(C)C)C(=O)N1CCC[C@H]1C(=O)N[C@@H](CO)C(=O)N[C@H](C(=O)N[C@H](C(=O)NCC(=O)N[C@@H](CC(C)C)C(=O)N[C@@H](Cc1ccccc1)C(=O)N[C@@H](CCCCN)C(=O)N[C@@H](CCCCN)C(=O)N[C@@H](CCCCN)C(=O)N[C@@H](CCC(N)=O)C(=O)N[C@@H](CCC(N)=O)C(=O)O)C(C)C)C(C)C,broth microdilution,ATCC 27853,,20 h,37 °C,> 40 µM
CC[C@H](C)[C@H](NC(=O)[C@H](C)NC(=O)[C@H](CCCCN)NC(=O)[C@H](CC(C)C)NC(=O)[C@H](C)NC(=O)[C@@H](NC(=O)[C@H](Cc1c[nH]cn1)NC(=O)[C@H](CC(C)C)NC(=O)[C@@H](NC(=O)[C@@H](NC(=O)[C@H](CCCCN)NC(=O)[C@H](CCCCN)NC(=O)[C@H](C)NC(=O)[C@H](CO)NC(=O)[C@H](CCCCN)NC(=O)[C@H](Cc1ccccc1)NC(=O)[C@@H](NC(=O)[C@H](CCCCN)NC(=O)[C@H](CC(C)C)NC(=O)[C@H](Cc1ccccc1)NC(=O)[C@H](CO)NC(=O)[C@H](CCCCN)NC(=O)[C@H](Cc1c[nH]c2ccccc12)NC(=O)[C@H](CCCCN)NC(C)=O)[C@@H](C)O)[C@@H](C)O)C(C)C)[C@@H](C)O)C(=O)N[C@@H](CO)C(=O)N[C@@H](CO)C(N)=O,broth dilution,ATCC 27853,Mueller-Hinton broth,24 h,37 °C,8 µg/mL
CC1(C)S[C@@H]2[C@H](NC(=O)[C@H](N)c3ccc(O)cc3)C(=O)N2[C@H]1C(=O)O,,ATCC 29853,,,,> 500 µg/mL
CC(C)C[C@H](NC(=O)[C@H](C)NC(=O)CNC(=O)[C@@H](NC(=O)[C@H](CC(C)C)NC(=O)[C@H](CCCCN)NC(=O)[C@H](CCCCN)NC(=O)[C@H](CC(C)C)NC(=O)[C@H](CC(C)C)NC(=O)[C@H](CCCCN)NC(=O)[C@H](CC(C)C)NC(=O)[C@H](CC(C)C)NC(=O)[C@@H](N)CCCCN)C(C)C)C(=O)NCC(N)=O,,ATCC 19606,CAMHB,18 h,37 °C,21 µM
C[C@H](N)C(=O)N[C@@H](CS)C(=O)N1CCC[C@H]1C(=O)N[C@@H](Cc1c[nH]cn1)C(=O)N[C@@H](CCCNC(=N)N)C(=O)N[C@@H](CS)C(=O)O,broth microdilution,MTCC 1688,,,37 °C,50 µg/mL
CC[C@H](C)[C@H](NC(=O)[C@H](Cc1ccccc1)NC(=O)[C@H](CC(=O)O)NC(=O)[C@H](CCCCN)NC(=O)[C@H](C)NC(=O)[C@H](CCCCN)NC(=O)[C@H](CC(N)=O)NC(=O)[C@H](CC(C)C)NC(=O)[C@H](Cc1c[nH]c2ccccc12)NC(=O)[C@H](CCC(=O)O)NC(=O)[C@H](CCCCN)NC(=O)[C@@H](NC(=O)CNC(=O)[C@H](C)N)[C@@H](C)O)C(=O)N[C@@H](CCCCN)C(=O)N[C@@H](CCC(=O)O)C(=O)N[C@@H](CCCCN)C(=O)NCC(=O)N[C@@H](CC(C)C)C(=O)NCC(=O)N[C@@H](CCSC)C(=O)N[C@@H](CC(C)C)C(=O)N[C@@H](CO)C(=O)N[C@@H](C)C(=O)N[C@@H](C)C(=O)N[C@@H](C)C(=O)N[C@@H](CC(N)=O)C(=O)N[C@@H](C)C(=O)N[C@@H](C)C(=O)N[C@@H](CC(C)C)C(=O)N[C@@H](CC(N)=O)C(=O)O,broth microdilution,ATCC 27853,,20 h,37 °C,> 40 µM
CC[C@H](C)[C@H](NC(=O)[C@H](C)NC(=O)[C@@H](NC(=O)[C@H](C)NC(=O)CN)[C@@H](C)O)C(=O)N[C@@H](CCCCN)C(=O)N[C@@H](CCC(N)=O)C(=O)N[C@H](C(=O)N[C@@H](CCCCN)C(=O)N[C@@H](CCCCN)C(=O)N[C@@H](CC(C)C)C(=O)N[C@@H](Cc1ccccc1)C(=O)N[C@@H](CCCCN)C(=O)N[C@@H](CCCCN)C(=O)N[C@@H](CCCCN)C(=O)NCC(=O)NCC(N)=O)C(C)C,broth microdilution,ATCC 9027,,24 h,37 °C,310 µM
CC[C@H](C)CCCCC(=O)N[C@@H](CCN)C(=O)N[C@H](C(=O)N[C@@H](CCN)C(=O)N[C@H]1CCNC(=O)[C@H]([C@@H](C)O)NC(=O)[C@H](CCN)NC(=O)[C@H](CCN)NC(=O)[C@H](CC(C)C)NC(=O)[C@@H](Cc2ccccc2)NC(=O)[C@H](CCN)NC1=O)[C@@H](C)O,broth microdilution,PA14,CAMHB,24 h,37 °C,1 µg/mL
CC[C@H](C)[C@H](NC(=O)[C@H](CC(=O)O)NC(=O)[C@H](Cc1ccccc1)NC(=O)[C@H](CC(C)C)NC(=O)CN)C(=O)N[C@H](C(=O)N[C@@H](CCCCN)C(=O)N[C@@H](CCCCN)C(=O)N[C@H](C(=O)N[C@H](C(=O)NCC(=O)N[C@@H](C)C(=O)N[C@@H](CC(C)C)C(=O)NCC(N)=O)C(C)C)C(C)C)C(C)C,,ATCC 19606,CAMHB,18 h,37 °C,> 23 µM
CC[C@H](C)CCCCC(=O)N[C@@H](CCN)C(=O)N[C@H](C(=O)N[C@@H](CCN)C(=O)N[C@H]1CCNC(=O)[C@H]([C@@H](C)O)NC(=O)[C@H](CCN)NC(=O)[C@H](CCN)NC(=O)[C@H](CC(C)C)NC(=O)[C@@H](CC(C)C)NC(=O)[C@H](CCN)NC1=O)[C@@H](C)O,broth microdilution,ATCC 27853,,,,1 µg/mL
CC(C)C[C@H](NC(=O)[C@H](C)NC(=O)CNC(=O)[C@H](CC(C)C)NC(=O)[C@H](CC(C)C)NC(=O)[C@H](CCCCN)NC(=O)[C@H](CCCCN)NC(=O)[C@H](CC(C)C)NC(=O)[C@H](CC(C)C)NC(=O)[C@H](CCCCN)NC(=O)[C@H](CC(C)C)NC(=O)[C@H](CC(C)C)NC(=O)[C@@H](N)CCCCN)C(=O)NCC(N)=O,,ATCC 19606,CAMHB,18 h,37 °C,21 µM
CC[C@H](C)[C@H](NC(=O)[C@H](CCCNC(=N)N)NC(=O)[C@H](Cc1c[nH]c2ccccc12)NC(=O)[C@H](CCCNC(=N)N)NC(=O)[C@@H](N)CCCCN)C(=O)N[C@@H](CCCNC(=N)N)C(=O)N[C@H](C(=O)N[C@@H](CCCNC(=N)N)C(=O)N[C@H](C(=O)N[C@H](C(=O)N[C@@H](CCCNC(=N)N)C(=O)N[C@@H](CCCCN)C(=O)N[C@@H](CS)C(=O)O)[C@@H](C)CC)C(C)C)C(C)C,,ATCC 27853,,24 h,37 °C,40 µM
CC(C)C[C@H](NC(=O)[C@H](CCC(=O)O)NC(=O)[C@H](CCCNC(=N)N)NC(=O)[C@H](C)NC(=O)[C@@H](NC(=O)[C@H](Cc1c[nH]cn1)NC(=O)[C@@H](N)Cc1c[nH]cn1)C(C)C)C(=O)N[C@@H](Cc1c[nH]cn1)C(=O)N1CCC[C@H]1C(=O)N[C@@H](CCC(=O)O)C(=O)N[C@@H](Cc1ccc(O)cc1)C(=O)N[C@@H](Cc1ccccc1)C(=O)N[C@@H](CCCCN)C(=O)N[C@@H](CC(N)=O)C(=O)N[C@@H](CS)C(=O)O,broth microdilution,PTCC 1074,,overnight,37 °C,10 µM
CC[C@H](C)[C@H](NC(=O)CNC(=O)[C@H](CCCNC(=N)N)NC(=O)[C@H](Cc1ccccc1)NC(=O)[C@@H](NC(=O)[C@H](Cc1c[nH]cn1)NC(=O)[C@H](Cc1c[nH]cn1)NC(=O)[C@H](Cc1ccccc1)NC(=O)[C@@H](N)Cc1ccccc1)[C@@H](C)CC)C(=O)N[C@H](C(=O)N[C@@H](Cc1c[nH]cn1)C(=O)N[C@H](C(=O)NCC(=O)N[C@@H](CCCCN)C(=O)N[C@H](C(=O)N[C@@H](C)C(=O)N[C@@H](Cc1c[nH]cn1)C(=O)N[C@@H](CCCNC(=N)N)C(=O)N[C@@H](CC(C)C)C(=O)N[C@H](C(=O)N[C@H](C(=O)NCC(N)=O)[C@@H](C)O)C(C)C)[C@@H](C)O)C(C)C)C(C)C,broth microdilution,ATCC 10662,,18 h,37 °C,25 µg/mL
CC(C)C[C@H](NC(=O)[C@H](CCCNC(=N)N)NC(=O)[C@H](CO)NC(=O)[C@H](CC(=O)O)NC(=O)[C@H](Cc1ccccc1)NC(=O)[C@H](CCCNC(=N)N)NC(=O)[C@H](Cc1c[nH]c2ccccc12)NC(=O)[C@@H](N)CCC(=O)O)C(=O)N[C@@H](C)C(=O)N[C@@H](Cc1ccccc1)C(=O)N[C@@H](Cc1c[nH]cn1)C(=O)N[C@@H](Cc1c[nH]cn1)C(=O)N[C@H](C(=O)N[C@@H](C)C(=O)N[C@@H](CCCNC(=N)N)C(=O)N[C@@H](CCC(=O)O)C(=O)N[C@@H](CC(C)C)C(=O)N[C@@H](Cc1c[nH]cn1)C(=O)N1CCC[C@H]1C(=O)N[C@@H](CCC(=O)O)C(=O)O)C(C)C,broth microdilution,PTCC 1074,,overnight,37 °C,20 µM
CC[C@H](C)[C@H](N)C(=O)N[C@@H](CCCCN)C(=O)N[C@@H](Cc1c[nH]c2ccccc12)C(=O)N[C@@H](CCCCN)C(=O)N[C@@H](CCCCN)C(=O)N[C@@H](CC(C)C)C(=O)N[C@@H](CC(C)C)C(=O)N[C@@H](CCCNC(=N)N)C(=O)N[C@@H](C)C(=O)N[C@@H](C)C(=O)N[C@@H](CCCCN)C(=O)N[C@@H](CCCNC(=N)N)C(=O)N[C@H](C(=O)N[C@@H](CC(C)C)C(N)=O)[C@@H](C)CC,broth microdilution,PAO1,,,,6.25 µM

# A few entries again:
SMILES,technique,strain,sample,time,temperature,MIC
CC(C)C[C@H](NC(=O)[C@H](CCCNC(=N)N)NC(=O)[C@H](CO)NC(=O)[C@H](CC(=O)O)NC(=O)[C@H](Cc1ccccc1)NC(=O)[C@H](CCCNC(=N)N)NC(=O)[C@H](Cc1c[nH]c2ccccc12)NC(=O)[C@@H](N)CCC(=O)O)C(=O)N[C@@H](C)C(=O)N[C@@H](Cc1ccccc1)C(=O)N[C@@H](Cc1c[nH]cn1)C(=O)N[C@@H](Cc1c[nH]cn1)C(=O)N[C@H](C(=O)N[C@@H](C)C(=O)N[C@@H](CCCNC(=N)N)C(=O)N[C@@H](CCC(=O)O)C(=O)N[C@@H](CC(C)C)C(=O)N[C@@H](Cc1c[nH]cn1)C(=O)N1CCC[C@H]1C(=O)N[C@@H](CCC(=O)O)C(=O)O)C(C)C,broth microdilution,PTCC 1074,,overnight,37 °C,20 µM
CC[C@H](C)[C@H](N)C(=O)N[C@@H](CCCCN)C(=O)N[C@@H](Cc1c[nH]c2ccccc12)C(=O)N[C@@H](CCCCN)C(=O)N[C@@H](CCCCN)C(=O)N[C@@H](CC(C)C)C(=O)N[C@@H](CC(C)C)C(=O)N[C@@H](CCCNC(=N)N)C(=O)N[C@@H](C)C(=O)N[C@@H](C)C(=O)N[C@@H](CCCCN)C(=O)N[C@@H](CCCNC(=N)N)C(=O)N[C@H](C(=O)N[C@@H](CC(C)C)C(N)=O)[C@@H](C)CC,broth microdilution,PAO1,,,,6.25 µM
